Measured values from different studies.
Each numbered part is a random draw from the data of one study; scales do not carry over between parts. Positions count from the first letter of the parent shown.

Sample 1
Target: Fragile X messenger ribonucleoprotein 1, C-terminal low-complexity region (Fmr1, Mus musculus, UniProt P35922)
Technique: RNA Bind-n-Seq
Molecule type: RNA
Matrix: in vitro
Concentration: 200 nM
Notes: whole 134-nt RNA, ends assumed
With: 150 mM LiCl
Relative to: input library
Direction: higher = stronger binding
Library: 7-deaza-guanosine replaces G
Shared flanks, not repeated: GGGAGUUCUACAGUCCGACGAUC … UGGAAUUCUCGGGUGUCAAGG
| Strand | log2 enrichment |
| --- | --- |
| AGUCCUGUGCUACACAUCGUAUGUACCGAAUCGGAAAAAGGGAAAAAGGGAAAAAGGGAAAGUAUUAUGUUACGCCGUUCGGAUCUGCAC | -0.867 |
| CUGUGCUACACAUCGUAUGUACCGAAUCGGGAAAAAAAGGGGAAAAAAAGGGAAAAAAAGGAAAGUAUUAUGUUACGCCGUUCGGAUCUG | 0.237 |
| CUGUGCUACACAUCGUAUGUACCGAAUCGGGGAAAAAAAGGGGUUUGGGGAAAAAAAGGGGAAAGUAUUAUGUUACGCCGUUCGGAUCUG | -0.429 |
| CACAGACAACACGCCCCCACACAGACACAGAGGGAAGGGGUUGGGAUGGGGACAGGGUGCACAGCAGGGCGGGGUAGGACCCCAGCCCCU | -1.22 |
| UCCUGUGCUACACAUCGUAUGUACCGAAUCAAAUUUUUUUAAAUUUUUAAACCCCCAAAAAAGUAUUAUGUUACGCCGUUCGGAUCUGCA | 0.975 |
| GUCCUGUGCUACACAUCGUAUGUACCGAAUCGGUUUUUGGGGUUUUUGGGUUUUUGGGGAAAGUAUUAUGUUACGCCGUUCGGAUCUGCA | -1.02 |
| ACCAUGCAGGUGGGCAUCUUUGGGAAGUGGGGCAAGGGGGGGAUAGGGAGGGGGGUAACACUUUGGGAACAGGUGGUCCCAUGUCGUUUC | 1.4 |
| CUGUGCUACACAUCGUAUGUACCGAAUCGGGGAAAAAAAGGGGUUUGGGGUUUUUUUGGGGAAAGUAUUAUGUUACGCCGUUCGGAUCUG | -0.831 |

Sample 2
Target: CCND2, cyclin fold, Cln2 fusion (human)
Technique: yeast growth competition, sequencing
Matrix: yeast
Notes: weak parent motif
Relative to: not given
Direction: higher = stronger binding
Parent: RBL2 docking peptide (human); STTRRRLFVENDS
| Variant | normalised enrichment score |
| --- | --- |
| STTRRRFFVENDS [L7F] | 0.298 |
| STTCRRLFVENDS [R4C] | 0.535 |
| STTRRRLFVEYDS [N11Y] | 0.356 |
| SITRRRLFVENDS [T2I] | 0.0467 |
| STTRRRLFVENDR [S13R] | 0.376 |
| SATRRRLFVENDS [T2A] | 0.0351 |
| STTRRRVFVENDS [L7V] | 0.00838 |
| MTTRRRLFVENDS [S1M] | 0.33 |
| STTVRRLFVENDS [R4V] | 0.134 |
| STTRRRLFVENIS [D12I] | 0.165 |
| STTRRRLFVENNS [D12N] | -0.0865 |
| STTRRRLFVCNDS [E10C] | -0.0636 |
| STTRRFLFVENDS [R6F] | 0.185 |
| SKTRRRLFVENDS [T2K] | 1.12 |
| STTNRRLFVENDS [R4N] | 0.0818 |

Sample 3
Target: RNA binding protein fox-1 homolog 2, RRM domain, GST-SBP tag (RBFOX2, Homo sapiens, UniProt O43251-10, residues 100-194)
Technique: RNA Bind-n-Seq
Molecule type: RNA
Matrix: in vitro
Concentration: 365 nM
Notes: natural RNA segment, single round, ends assumed
Relative to: no-protein control
Direction: higher = stronger binding
Shared flanks, not repeated: GGGAGUUCUACAGUCCGACGAUC … UGGAAUUCUCGGGUGCCAA
Residues (chain): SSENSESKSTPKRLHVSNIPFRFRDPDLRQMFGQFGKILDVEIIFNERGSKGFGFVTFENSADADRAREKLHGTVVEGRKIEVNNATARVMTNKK
| Strand | RBNS enrichment (R) |
| --- | --- |
| GGAGAGAUGUGUCACUCAAUCCUGUGGCUUUGGUGAGAGAGUGUGCAGAGAGCAAUGAUAGCAAAUAACGUACGAAUGUUUUACAUCAAAGGACAUCCACAUCAGUUGGA | 0.687 |
| UAUGUUUUCCUGUACUAGAUGGCUAGGAUUCCAGAGAAUUACUAUAAAGUAUUUUCAACACACCUGACAUUGCAUUUCUCAUUUUUUAAGAUUUUUUUUUUAAUUUUUAA | 0.7 |
| UUACAUUUCCUUGAUAGCUAAUGAUGAGCAUUUUUCAUGUGCUUAUGGGCCGUUUAUAUACCUUUGGUGAAAUGUCUAUUUAAAUCUUUUGCUCACUUUUCAGUUGGGUU | 0.698 |
| CAGAGGGAUGGUUCCAUUUUGACAGUGACUUUGGUUUUUUCCUCCGUAUAGAUUCAUCGUGUAGUUCUUCCCAAUAACAAUUACCCAUAUCAUUGAUGUAAAACCCUUGG | 1.11 |
| AAUGCCCACUGCCUGUAACAGCCACCUGGAGAACUUCAUAAAGAUGUCUCACAGCCCUGGGGACACCUGCCCAGUGGGCCCCAGCCCUACAGGGACUGGGCAAAGAUGAU | 0.484 |
| GUUCUGCCUCUGCCUUGAUACUGCCUCAGGAUUCCCUAUCCCAUACCCUGGGAAAUUUGAGGGACCCCAAAAACUGAGGUCUCCUGCUUUCUCCAUAAUUUGGUCUCCUC | 0.837 |
| UAUGAUGCAUUUAUAAACUAACUGGAACUGAGAAAUUCUCAUGCCCACUAAAGGAAAAGCUAAUUCUAUUGCCCCAGGGUGCAUAUUUCUAUGCCUUAUUUGAGUUAUCA | 0.483 |
| AGGAGAGGUUCUGUAGAAUCCAAGCCCACAUUUCCAAAGUCACCCCCAACGCGUCCUCUCACACCGUCCACUGUGCGUUUGUAUGUGUCUGGGAUCCAGGGCAAUGUGAA | 0.379 |
| ACGAGCUCAAGCUGAAGUCAGAUGAGGACGAGGAGCGGGUCCACGAGGAGCUCUGAGGGGCAGGGAGCCUGGCCAGGCCUGAGACACAGAGGCCCACUGCGAGGGGGACA | 0.685 |
| GCAGGCUCCAGCAGCUCCCUUCUUCCUUCCCUCUGUGCCCGUGGCGUCUGCUUCCCAUCCUGGGAGUGUGUAUAUAUGUAGCAUAUCAUGGGGGACUGGGAAGUUGGGAG | 0.207 |
| AAGUGACCUCCUUUUCCUUAUUUAUAUUUCCUGGCCACUAUUCAGUUGUAAGAUAACAUUUGAAAUGUGAGACUAUAUGGUUUUUAAUAAAAUGUUUGAUGUUUUAUCCC | 0.579 |
| UCAUAAUUUAAUAAAACGCUUACUAGAAAGACCAUUACAGAUCCCAAACACUUGGGUUUGGUGACCCUGUCUUUCUUAUAUGACCCUACAAUAAACAUUUGAAGGCAGCA | 0.617 |

Sample 4
Molecule: PhoQ, residues 284 288 289 292 302 303 AAQSYM
Technique: Sort-seq
Refers to: YFP reporter
Matrix: E. coli
Notes: PhoQ-PhoP variant library
With: 10 µM Mg2+
Relative to: high Mg2+ state
Direction: higher = stronger signaling
| target | fold induction |
| --- | --- |
| PhoP, residues 12 14 15 18 19 GMGLL (Escherichia coli, UniProt P23836) | 0.817 |
| PhoP, residues 12 14 15 18 19 QQAYL (Escherichia coli, UniProt P23836) | 20.7 |
| PhoP, residues 12 14 15 18 19 LFHKL (Escherichia coli, UniProt P23836) | 7.07 |

Repeated from above (sample 1):
| Strand | log2 enrichment |
| --- | --- |
| AGUCCUGUGCUACACAUCGUAUGUACCGAAUCGGAAAAAGGGAAAAAGGGAAAAAGGGAAAGUAUUAUGUUACGCCGUUCGGAUCUGCAC | -0.867 |
| CUGUGCUACACAUCGUAUGUACCGAAUCGGGAAAAAAAGGGGAAAAAAAGGGAAAAAAAGGAAAGUAUUAUGUUACGCCGUUCGGAUCUG | 0.237 |
| CUGUGCUACACAUCGUAUGUACCGAAUCGGGGAAAAAAAGGGGUUUGGGGAAAAAAAGGGGAAAGUAUUAUGUUACGCCGUUCGGAUCUG | -0.429 |
